{"data": "Published values collected from several papers", "note": "Compare with care: the assays were run in different laboratories. Numbers after ± are the reported error."}
{"SMILES": "CC(C)(C(=O)N1CCOc2c(C#N)cncc2C1)C(F)F", "assay": "measured: haematochezia", "system": "human, both sexes", "conditions": "oral, 20 mg once daily, 14 days, multiple ascending dose", "measurement": "subjects with TEAE", "value": "0%"}
{"SMILES": "C[C@H](CCC(=O)NCC(=O)O)[C@H]1CC[C@H]2[C@@H]3[C@H](O)C[C@@H]4C[C@H](O)CC[C@]4(C)[C@H]3CC[C@]12C", "system": "human, plasma", "conditions": "endogenous baseline diurnal", "how to read": "reference: daily mean concentration", "measurement": "relative peak deviation", "value": "184 ± 20%"}
{"SMILES": "Cc1cc(OCC(=O)OCCN)cc(C)c1Cc1ccc(O)c(C(C)C)c1.Cl", "assay": "LC-MS/MS, measured: liberated sobetirome", "system": "mouse, brain", "conditions": "intraperitoneal, 1.5 µmol/kg, 30 min", "how to read": "reference: equimolar sobetirome injection", "measurement": "sobetirome level", "value": "increased"}
{"SMILES": "O=C(Nc1nc2cccc(-c3ccc(CN4CCS(=O)(=O)CC4)cc3)n2n1)C1CC1", "assay": "measured: arthropod sting allergy", "system": "rheumatoid arthritis patients", "conditions": "oral, 75 mg once daily, 4 weeks, any relatedness", "measurement": "treatment-emergent adverse events", "value": "0%"}
{"SMILES": "CCN1/C(=C/C(C)=O)Sc2ccc(F)cc21", "system": "cynomolgus monkey", "conditions": "oral, 10 mg/kg, 6 h post-dose", "measurement": "systolic blood pressure", "value": "123 ± 8 mmHg"}
{"SMILES": "CN1CCN(c2cccc3c2CCN(C(=O)/C=C/c2c(-n4cnnn4)ccc(Cl)c2F)[C@@H]3C(=O)Nc2ccc(C(=O)O)cc2)C(=O)C1", "system": "healthy human subjects", "conditions": "intravenous infusion, 3 mg/h, 5 days", "measurement": "subjects with any adverse event", "value": "12.5%"}
{"SMILES": "FC(F)(F)c1ccc(CNc2ccc(Cc3c[nH]c4ncc(Cl)cc34)cn2)cn1", "assay": "measured: Hypophosphataemia", "system": "patients with advanced solid tumours", "conditions": "oral, dose not given, all grades, possibly related to drug", "measurement": "adverse event incidence", "value": "15%"}
{"SMILES": "O=C(N[C@H](Cc1c[nH]c2ccccc12)C(=O)Nc1ccncc1)c1ccc(N2CCN(c3ccc(F)c(F)c3)CC2)cc1F", "system": "Swiss Webster mouse, female, plasma", "conditions": "oral, 50 mg/kg, 2 h, 20% HPβCD vehicle", "measurement": "concentration", "value": "110 nM"}
{"SMILES": "Cc1cc(NC2CCN(C(=O)OC3CCN(C(=O)/C=C/CN(C)C)C3)CC2)n2ncc(C(C)C)c2n1 (stereo not drawn)", "assay": "Phase I dose escalation CTCAE v4.0, measured: small intestinal obstruction", "system": "patients with advanced solid tumours", "conditions": "dose not given, QD dosing any grade", "measurement": "patients with adverse event", "value": "7%"}
{"SMILES": "CCC(=O)N(CCC(c1ccc2c(c1)OCO2)c1ccccc1OC)Cc1ccccc1 (stereo not drawn)", "system": "female athymic nude mouse, blood", "conditions": "i.p., 60 mg/kg twice daily, 14 days, group mean", "measurement": "BUN", "value": "24.5 mg/dL"}
{"SMILES": "C=CC(=O)N1CCC(c2ccc(C(N)=O)c(-c3ccc(Oc4ccccc4)cc3)n2)CC1", "system": "relapsed/refractory mantle cell lymphoma patients", "conditions": "oral, dose not given, phase 1/2 trial, CTCAE v4.03", "measurement": "incidence of serious pleural effusion", "value": "0.9%"}
{"SMILES": "CCOc1c([C@H](C)n2nc(C)c3c(N)ncnc32)cc(Cl)c(F)c1[C@@H]1CNC(=O)C1", "system": "patients, monotherapy", "conditions": "oral, 15 mg once daily, cycle 1 day 1", "measurement": "Cmax", "value": "808 ± 316 nM"}
{"SMILES": "C=CC[C@@H]1/C=C(\\C)C[C@H](C)C[C@H](OC)[C@H]2O[C@@](O)(C(=O)C(=O)N3CCCC[C@H]3C(=O)O[C@H](/C(C)=C/[C@@H]3CC[C@@H](O)[C@H](OC)C3)[C@H](C)[C@@H](O)CC1=O)[C@H](C)C[C@@H]2OC", "system": "Wistar Kyoto rat, male, plasma", "conditions": "ip, 0.5 mg/kg/day, day 28, at sacrifice", "measurement": "plasma Na+ level", "value": "142 ± 1 mmol/L"}
{"SMILES": "CO[C@H]1C[C@@H]2CC[C@@H](C)[C@@](O)(O2)C(=O)C(=O)N2CCCC[C@H]2C(=O)O[C@H]([C@H](C)C[C@@H]2CC[C@@H](OC(=O)NCCOCCOCCOCCOCCOCCOCCOCCOCCC(=O)N3CCc4cc(Cn5nc(-c6ccc7oc(N)nc7c6)c6c(N)ncnc65)ccc4C3)[C@H](OC)C2)C[C@@H](O)[C@H](C)/C=C(\\C)[C@@H](O)[C@@H](OC)C(=O)[C@H](C)C[C@H](C)/C=C/C=C/C=C/1C", "system": "human patients, plasma", "conditions": "intravenous, 12 mg, cycle 1 day 15", "measurement": "unbound AUClast", "value": "0.0387 µM·h"}
{"SMILES": "CNCc1ccc(-c2[nH]c3cc(F)cc4c3c2CCNC4=O)cc1", "system": "patients", "conditions": "oral, 600 mg twice daily, grade 4", "measurement": "cough incidence", "value": "0%"}
{"SMILES": "N=C(N)NCCNC(=O)C1(Nc2ccccc2)CCN(Cc2ccccc2)CC1", "system": "Sprague-Dawley rats, both sexes, plasma", "conditions": "oral, 50 mg/kg, mean of both sexes", "measurement": "half-life", "value": "0.2 h"}
{"SMILES": "CN(C)C(=N)N=C(N)N", "assay": "measured: oral herpes", "system": "healthy men", "conditions": "dose not given, 8 days, treatment-emergent, crossover trial", "measurement": "subjects with adverse event", "value": "0%"}
{"SMILES": "Cc1ccc(O)c(-n2nc3ccccc3n2)c1", "system": "human aged 11-16 years", "conditions": "concentration not given, spray sunscreen, 95th percentile", "measurement": "daily dermal exposure dose", "value": "2890 ng/kg/day"}
{"SMILES": "Cc1c(-c2ccc(N3CCc4cccc(C(=O)Nc5nc6ccccc6s5)c4C3)nc2C(=O)O)cnn1CC12CC3(C)CC(C)(C1)CC(OCCNCC[C@H](O)CO)(C3)C2", "system": "anaesthetized male beagle dog", "conditions": "iv infusion, 0.1 mg/kg/min, 150 min", "measurement": "plasma concentration", "value": "< 4 ng/mL"}
{"SMILES": "Cc1cc(-c2nccc3c2ccn3CC(=O)Nc2ccc(-c3cnccn3)cn2)ccn1", "system": "human", "conditions": "15 mg once daily, multiple ascending dose", "measurement": "subjects with Dysgeusia adverse event", "value": "11.1%"}
{"SMILES": "NS(=O)(=O)c1ccc(-n2nc(C(F)(F)F)cc2-c2ccc(C(=O)O)cc2)cc1", "system": "Sprague-Dawley rat", "conditions": "oral, 20 mg/kg of celecoxib, 4 h", "measurement": "blood-to-plasma ratio", "value": 2.3}
{"SMILES": "NC1(C(=O)N[C@@H](CCO)c2ccc(Cl)cc2)CCN(c2nc[nH]c3nccc2-3)CC1", "system": "human mCRPC patients", "conditions": "oral, twice daily, 4/7 days, any grade, treatment-related, added: enzalutamide 160 mg daily", "measurement": "maculo-papular rash incidence", "value": "20%"}
{"SMILES": "O=C(COc1ccc(Cl)cc1)NC12CC(c3nnc([C@H]4C[C@@H](OC(F)(F)F)C4)o3)(C1)C2", "assay": "measured: Hypogeusia", "system": "human", "conditions": "100 mg once daily, 28 (unit not given)", "measurement": "adverse event incidence", "value": "10%"}
{"SMILES": "C[C@H](CCC(=O)O)[C@H]1CC[C@H]2[C@@H]3CC[C@@H]4C[C@H](OS(=O)(=O)O)CC[C@]4(C)[C@H]3CC[C@]12C", "system": "human, plasma", "conditions": "endogenous baseline diurnal", "how to read": "reference: daily mean concentration", "measurement": "relative peak deviation", "value": "6.69 ± 1.87%"}
{"SMILES": "COc1cc(Nc2ncc3c(n2)-c2ccc(Cl)cc2C(c2c(F)cccc2OC)=NC3)ccc1C(=O)O", "assay": "measured: Nausea, grade 1", "system": "cancer patients, phase 1/2", "conditions": "oral, dose not given, added: pembrolizumab", "measurement": "patients with adverse event", "value": "21%"}
{"SMILES": "C[C@@H](c1ncncc1F)[C@](O)(Cn1cncn1)c1ccc(F)cc1F", "assay": "measured: Nausea", "system": "human", "conditions": "oral, 400 mg", "measurement": "drug-related TEAE incidence", "value": "0%"}
{"SMILES": "CC(C)n1c(Nc2cccnc2)nc2cnc(Nc3ccc(N4CCN(C)CC4)cc3)nc21", "assay": "measured: aspartate aminotransferase increased", "system": "healthy male subjects", "conditions": "oral, 100 mg, study, added: gemfibrozil", "measurement": "subjects with adverse event", "value": "28.6%"}
{"SMILES": "CCn1cc(C(=O)N2CCOCC2)c(=O)c2cc(NC3Cc4ccccc4C3)cnc21", "system": "human, fasted, plasma", "conditions": "oral, 600 mg single dose, tablet, arithmetic mean", "measurement": "AUC(0-last)", "value": "19600 ng·h/mL"}
{"SMILES": "Cc1nc2cccc(OCC(C)(C)C(=O)NC(C)C)c2c(N)c1C(=O)O", "system": "male Swiss albino CD-1 mouse, bone marrow", "conditions": "oral, 500 mg/kg, 24 h", "measurement": "micronucleated polychromatic erythrocytes", "value": "0.04%"}
{"SMILES": "FC(F)(F)c1ccc(CNc2ccc(Cc3c[nH]c4ncc(Cl)cc34)cn2)cn1", "assay": "measured: Anemia", "system": "patients with advanced solid tumours, non-TGCT cohort", "conditions": "oral, 1000 mg/day, any grade", "measurement": "treatment-related adverse events", "value": "10%"}
{"SMILES": "COc1ccc([C@@H](O)c2cc(-c3ncnc4cc(N5CCOCC5)ccc34)c(F)cc2Cl)nn1", "system": "locally advanced rectal cancer patients", "conditions": "100 mg, added: capecitabine and radiotherapy", "measurement": "blood lymphatic disorder TEAE", "value": "33%"}
{"SMILES": "Cc1c(C(=O)O)ccc2c3n(nc12)[C@@H]1[C@H](C3)N(CC2CC2)[C@@]2(C(=O)Nc3cc(Cl)ccc32)[C@H]1c1cccc(Cl)c1F", "system": "female BALB/c nude mice, SJSA-1 xenograft, plasma", "conditions": "oral, 2 mg/kg once daily, 2 h, mean", "measurement": "plasma concentration", "value": "2180 nM"}
{"SMILES": "CCO[C@H]1CCN(Cc2c(OC)cc(C)c3[nH]ccc23)[C@H](c2ccc(C(=O)O)cc2)C1", "system": "PNH patients, active haemolysis", "conditions": "oral, 100 mg, 8 weeks, treatment", "measurement": "incidence of abdominal distension", "value": "0%"}
{"SMILES": "Cc1ccc(Sc2ccccc2N2CCNCC2)c(C)c1", "assay": "measured: metrorrhagia", "system": "healthy adult men", "conditions": "oral, 20 mg daily, 12 days", "measurement": "participants with TEAE", "value": "0%"}
{"SMILES": "CNC(=O)c1ccc(-c2cnc3ncc(Cc4ccc5ncccc5c4)n3n2)cc1F", "assay": "measured: Diarrhea, all grades", "system": "cancer patients", "conditions": "oral, dose not given, dose escalation, any causality", "measurement": "patients with adverse event", "value": "24%"}
{"SMILES": "Cn1cc(Nc2nccc(-c3ccc4c(c3)CN(C3COC3)CC[C@H]4NC(=O)c3cn(C(C)(C)C)nn3)n2)cn1", "system": "human, whole blood", "conditions": "50 mg twice daily, day 7", "how to read": "reference: pre-dose baseline", "measurement": "transitional B cell count change", "value": "1040%"}
{"SMILES": "CC(=O)Nc1ccc(C[C@H](NC(=O)[C@H](CO)NC(=O)[C@@H](Cc2cccnc2)NC(=O)[C@@H](Cc2ccc(Cl)cc2)NC(=O)[C@@H](Cc2ccc3ccccc3c2)NC(C)=O)C(=O)N[C@H](Cc2ccc(NC(C)=O)cc2)C(=O)N[C@@H](CC(C)C)C(=O)N[C@@H](CCCCNC(C)C)C(=O)N2CCC[C@H]2C(=O)N[C@H](C)C(N)=O)cc1", "system": "healthy men, fasted, serum", "conditions": "oral, 40 mg single dose", "measurement": "terminal half-life", "value": "10.7 ± 3.2 h"}
{"SMILES": "Cl.[2H]C([2H])([2H])CC(=O)c1cnc(NC(=O)C2CC2)cc1Nc1cccc(-c2ncn(C([2H])([2H])[2H])n2)c1OC", "assay": "median", "system": "human", "conditions": "oral, 20 mg once daily, day 1, fasted, liquid, multiple dose", "measurement": "Tmax", "value": "1.32 h"}
{"SMILES": "CCc1cc(C(=O)NC)c2nccc(N3CCc4c(cc(Cn5ccnc5)cc4-c4cn(C)nc4C(F)(F)F)C3=O)c2c1", "system": "Sprague Dawley rats", "conditions": "oral, 100 mg/kg once daily, 7 days", "measurement": "mean corpuscular haemoglobin", "value": "20.1 ± 0.53 pg"}
{"note": "A few entries again:"}
{"SMILES": "CNC(=O)c1ccc(-c2cnc3ncc(Cc4ccc5ncccc5c4)n3n2)cc1F", "assay": "measured: Diarrhea, all grades", "system": "cancer patients", "conditions": "oral, dose not given, dose escalation, any causality", "measurement": "patients with adverse event", "value": "24%"}
{"SMILES": "CN1CCN(c2cccc3c2CCN(C(=O)/C=C/c2c(-n4cnnn4)ccc(Cl)c2F)[C@@H]3C(=O)Nc2ccc(C(=O)O)cc2)C(=O)C1", "system": "healthy human subjects", "conditions": "intravenous infusion, 3 mg/h, 5 days", "measurement": "subjects with any adverse event", "value": "12.5%"}
{"SMILES": "Cc1cc(-c2nccc3c2ccn3CC(=O)Nc2ccc(-c3cnccn3)cn2)ccn1", "system": "human", "conditions": "15 mg once daily, multiple ascending dose", "measurement": "subjects with Dysgeusia adverse event", "value": "11.1%"}
